Results pooled from the literature.
Several values in a cell are separate wells, animals, samples, runs or records.
Target: Calcium/calmodulin-dependent protein kinase type II subunit beta (CAMK2B, Homo sapiens, UniProt Q13554)

Compound | assay | test system | setting | how to read | measurement | value
Cc1ccc(-c2c(/C=C(\C#N)C(=O)NC(C)C)n(CCCO)c3ncnc(N)c23)cc1 | cell-free assay, competition with immobilised ligand |  | 1 µM |  | remaining binding | 94%
O=c1c(-c2ccc(Cl)c(CN3CCOCC3)c2)coc2cc(O)ccc12 | enzyme activity, inhibitor |  | 1 µM |  | remaining activity | 108%
N[C@H]1CC[C@H](Nc2nccc(-c3cccnc3Oc3ccc(NC(=O)NC4CC4)c4ccccc34)n2)CC1 | kinobead competition pulldown | HEK293/HCT116 lysate mixture | 10 µM, 1 h, 4 °C | lower = stronger competition | log2 LFQ intensity | 23.9 and 24.2 and 24.3 and 24
C=CC(=O)N1Cc2nc(-c3cc(-c4cc(Cl)cnc4Cl)c(F)cc3F)n(-c3ccncn3)c2C1 | cell-free assay, inhibitor |  | 1 µM |  | inhibition | 1.6%
CCn1cc(C(=O)O)c(=O)c2c(N)c(F)c(NC3CCCCC3)cc21 | kinase activity |  | 0.1 µM, with: ATP at Km |  | inhibition | -9.5%
CCN1CCN(Cc2ccc(C(=O)Nc3ccc(C)c(NCc4cnc5[nH]ccc5c4OC)c3)cc2C(F)(F)F)CC1 | binding, competition with immobilised ligand |  | 1 µM |  | remaining binding | 93%
O=C=[N][Ru-4]123([n]4c5ccc(O)cc5c5c6c(c7cc(F)c[n+]1c7c54)C(=O)NC6=O)[S+]1CC[S+]2CC[S+]3CC1 (stereo not drawn) | enzyme activity |  | 100 nM, human enzyme, with: 10 µM ATP | baseline: untreated | remaining activity | 63%
Cc1cccc(O[C@H]2CCC[C@@H](C(C)CNCc3ccncc3)C2)c1 (relative stereo) | enzyme activity, inhibitor |  | 10 µM |  | inhibition | 5%
COc1cc(Nc2nccc(-c3cnn4nc(OC)ccc34)n2)cc(C(F)(F)F)c1 | binding, competition with immobilised ligand |  | 1 µM |  | remaining binding | 100%
CNC(=O)C1CCN(c2cc(C)c(F)cc2NC(=O)c2ccc(-c3cc(O)ccc3C)c(C)c2)CC1 | binding, competition with immobilised ligand |  | 1 µM |  | remaining binding | 100%
C=CC(=O)Nc1cccc(-c2cnc3[nH]cc(C(=O)NC(C)(C)C)c3n2)c1 | enzyme activity, inhibitor |  | 0.1 µM |  | inhibition | 1%
NC(=O)[C@@H](O)C[C@H]1CCc2sc3ncnc(O[C@H]4CC[C@H](N5CCOCC5)CC4)c3c21 | enzyme activity, inhibitor |  | 10 µM |  | inhibition | 28%
COc1ccc(NC(=O)Nc2ccc3c(c2)C(=O)N(C(C)CO)CC(C)C(CN(C)Cc2ccc4c(c2)OCO4)O3)cc1 (stereo not drawn) | kinase activity, KinaseProfiler |  | 0.03 µM, species human | baseline: control | remaining activity | 107%
COc1c(Cl)cccc1Nc1c(-c2ccncc2C#C[C@@]2(C)CCCN2C(=O)/C=C/CN(C)C)[nH]c2c1C(=O)NCC2 | cell-free assay, competition with immobilised ligand |  | 3 µM |  | remaining binding | 100%
Nc1ncc2c(n1)-c1c([nH]c3ccc(C4=CCOCC4)cc13)CCC2 | binding, competition with immobilised ligand |  | 1 µM |  | remaining binding | 92%

Some of these lines once more:
Compound | assay | test system | setting | how to read | measurement | value
C=CC(=O)Nc1cccc(-c2cnc3[nH]cc(C(=O)NC(C)(C)C)c3n2)c1 | enzyme activity, inhibitor |  | 0.1 µM |  | inhibition | 1%
